Results collected from several papers.
Several values in a cell are separate wells, animals, samples, runs or records.
Target: Insulin receptor-related protein (INSRR, Homo sapiens, UniProt P14616)

| SMILES | test | setting | how to read | endpoint | value |
| --- | --- | --- | --- | --- | --- |
| CCn1cc(C(=O)O)c(=O)c2c(N)c(F)c(NC3CCCCC3)cc21 | kinase activity | 0.1 µM, added: ATP at Km | – | inhibition | 20.2% |
| Cc1cnc2nc1Nc1cccc(c1)COC/C=C/COCc1cc(ccc1OCCN1CCOCC1)N2 | binding | 0.1 µM | – | remaining binding | 68% |
| C=CC(=O)Nc1cccc(-c2cnc3[nH]cc(C(=O)NC(C)(C)C)c3n2)c1 | kinase activity | 0.1 µM | – | inhibition | -1% and 3% |
| COc1cc(Nc2nc(C)cc(-c3cnn4nc(OC)ccc34)n2)cc(C(F)(F)F)c1 | inhibitor | 1 µM | baseline: control | remaining activity | 86% |
| Cc1cccc(O[C@H]2CCC[C@@H](C(C)CNCc3ccncc3)C2)c1 (relative stereo) | cell-free assay | 1 µM | – | inhibition | 1% |
| CCN1CCN(Cc2ccc(C(=O)Nc3ccc(C)c(NCc4cnc5[nH]ccc5c4OC)c3)cc2C(F)(F)F)CC1 | binding, competition with immobilised ligand | 1 µM | – | remaining binding | 85% |
| NC(=O)C[C@H]1CCc2sc3ncnc(O[C@H]4CC[C@H](N5CCOCC5)CC4)c3c21 | enzyme activity, inhibitor | 10 µM | – | inhibition | 21% |
| Nc1ncc2c(n1)-c1c([nH]c3ccc(C4=CCOCC4)cc13)CCC2 | binding, competition with immobilised ligand | 1 µM | – | remaining binding | 82% |
| C=CC(=O)N1CCCC(n2c(=O)c3ncccc3n(Cc3ccc(Oc4ccccc4)cc3)c2=O)C1 (centres unmarked) | cell-free assay, competition with immobilised ligand | 1 µM | – | remaining binding | 100% |
| Nc1nc(Nc2ccccc2)sc1C(=O)c1ccccc1 | enzyme activity, inhibitor | 10 µM | – | remaining activity | 16% |
| COc1ccc(NC(=O)Nc2ccc3c(c2)C(=O)N(C(C)CO)CC(C)C(CN(C)Cc2ccc4c(c2)OCO4)O3)cc1 (centres unmarked) | kinase activity | 0.03 µM | baseline: control | remaining activity | 104% |
| COc1c(OCCCN2CCOCC2)ccc2c1N=C(NC(=O)c1cnc(N)nc1)N1CCN=C21 | kinase activity, inhibitor | 1 µM | baseline: untreated control | remaining activity | 112% |
| Cc1cccc(-c2ccc3nc(NC(=O)C4CCOCC4)nn3c2)c1 | enzyme activity, Dundee kinase panel | 10 µM | – | remaining activity | 27% |
| C=CC(=O)N1CCc2ccc(-n3c(=O)ccc4cnc5ccc(-c6cnn(C)c6)cc5c43)cc21 | KINOMEscan | 1 µM | baseline: DMSO control | remaining binding | 100% |
| C=CC(=O)N1Cc2nc(-c3cc(-c4cc(Cl)cnc4Cl)c(F)cc3F)n(-c3ccncn3)c2C1 | cell-free assay | 1 µM | – | inhibition | 4.9% |
| Cc1ccc(C)c(-c2ccc3nc(NC(=O)C4CCCCC4)nn3c2)c1 | enzyme activity, Dundee kinase panel | 10 µM | – | remaining activity | 14% |
| O=C=[N][Ru-4]123([n]4c5ccc(O)cc5c5c6c(c7cc(F)c[n+]1c7c54)C(=O)NC6=O)[S+]1CC[S+]2CC[S+]3CC1 (centres unmarked) | enzyme activity | 100 nM, human enzyme, added: 10 µM ATP | baseline: untreated | remaining activity | 54% |

A few entries again:
| SMILES | test | setting | how to read | endpoint | value |
| --- | --- | --- | --- | --- | --- |
| Cc1ccc(C)c(-c2ccc3nc(NC(=O)C4CCCCC4)nn3c2)c1 | enzyme activity, Dundee kinase panel | 10 µM | – | remaining activity | 14% |
| COc1cc(Nc2nc(C)cc(-c3cnn4nc(OC)ccc34)n2)cc(C(F)(F)F)c1 | inhibitor | 1 µM | baseline: control | remaining activity | 86% |
| Cc1cccc(O[C@H]2CCC[C@@H](C(C)CNCc3ccncc3)C2)c1 (relative stereo) | cell-free assay | 1 µM | – | inhibition | 1% |
